Published values gathered from unrelated publications.
Every numbered part comes from another study and shows a few of its results, in no order. “And” joins repeats or separate records; there may be more than shown.
UniProt Q00536, sequence (whole entry, looked up): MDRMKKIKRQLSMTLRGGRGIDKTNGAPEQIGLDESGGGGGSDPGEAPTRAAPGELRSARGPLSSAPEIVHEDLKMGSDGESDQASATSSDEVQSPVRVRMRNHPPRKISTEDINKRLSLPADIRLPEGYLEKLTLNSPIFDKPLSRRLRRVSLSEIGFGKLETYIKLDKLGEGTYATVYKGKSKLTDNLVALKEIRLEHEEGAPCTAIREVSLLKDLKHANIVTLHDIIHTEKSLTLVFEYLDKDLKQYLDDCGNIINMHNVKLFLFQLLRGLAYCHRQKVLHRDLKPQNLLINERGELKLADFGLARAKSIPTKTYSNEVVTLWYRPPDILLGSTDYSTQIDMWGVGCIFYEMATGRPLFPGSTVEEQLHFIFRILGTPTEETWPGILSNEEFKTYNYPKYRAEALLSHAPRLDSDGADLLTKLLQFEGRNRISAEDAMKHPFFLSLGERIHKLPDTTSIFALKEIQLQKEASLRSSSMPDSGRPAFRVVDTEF
UniProt Q6PHR2, sequence (whole entry, looked up): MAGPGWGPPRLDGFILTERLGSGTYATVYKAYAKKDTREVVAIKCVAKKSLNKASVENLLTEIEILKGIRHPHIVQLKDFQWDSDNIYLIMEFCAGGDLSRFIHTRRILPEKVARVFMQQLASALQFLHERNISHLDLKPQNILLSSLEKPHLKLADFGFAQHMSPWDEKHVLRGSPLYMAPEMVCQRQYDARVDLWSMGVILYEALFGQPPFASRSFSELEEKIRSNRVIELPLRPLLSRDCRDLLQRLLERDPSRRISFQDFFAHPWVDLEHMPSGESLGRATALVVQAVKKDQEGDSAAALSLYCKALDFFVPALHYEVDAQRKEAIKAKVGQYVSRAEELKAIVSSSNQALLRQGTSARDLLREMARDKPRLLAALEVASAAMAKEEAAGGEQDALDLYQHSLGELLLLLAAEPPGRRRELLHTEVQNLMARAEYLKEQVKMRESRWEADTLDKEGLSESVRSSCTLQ
UniProt Q15569, sequence (whole entry, looked up): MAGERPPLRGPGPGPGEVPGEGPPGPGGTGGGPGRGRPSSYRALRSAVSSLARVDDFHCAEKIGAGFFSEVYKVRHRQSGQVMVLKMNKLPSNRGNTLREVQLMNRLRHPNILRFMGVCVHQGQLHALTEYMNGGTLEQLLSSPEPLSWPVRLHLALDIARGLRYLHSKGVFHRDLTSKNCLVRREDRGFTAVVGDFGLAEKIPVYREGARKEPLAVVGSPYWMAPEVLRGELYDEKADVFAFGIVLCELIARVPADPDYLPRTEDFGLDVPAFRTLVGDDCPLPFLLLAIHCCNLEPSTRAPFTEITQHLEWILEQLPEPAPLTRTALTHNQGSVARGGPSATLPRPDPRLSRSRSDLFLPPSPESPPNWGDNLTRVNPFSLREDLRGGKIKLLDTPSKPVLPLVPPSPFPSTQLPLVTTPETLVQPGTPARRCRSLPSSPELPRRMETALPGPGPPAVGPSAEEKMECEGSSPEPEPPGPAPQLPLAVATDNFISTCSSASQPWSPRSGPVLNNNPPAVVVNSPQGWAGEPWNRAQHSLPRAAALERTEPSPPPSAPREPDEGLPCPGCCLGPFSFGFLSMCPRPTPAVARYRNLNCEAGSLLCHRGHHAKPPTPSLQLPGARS
UniProt P41240, sequence (whole entry, looked up): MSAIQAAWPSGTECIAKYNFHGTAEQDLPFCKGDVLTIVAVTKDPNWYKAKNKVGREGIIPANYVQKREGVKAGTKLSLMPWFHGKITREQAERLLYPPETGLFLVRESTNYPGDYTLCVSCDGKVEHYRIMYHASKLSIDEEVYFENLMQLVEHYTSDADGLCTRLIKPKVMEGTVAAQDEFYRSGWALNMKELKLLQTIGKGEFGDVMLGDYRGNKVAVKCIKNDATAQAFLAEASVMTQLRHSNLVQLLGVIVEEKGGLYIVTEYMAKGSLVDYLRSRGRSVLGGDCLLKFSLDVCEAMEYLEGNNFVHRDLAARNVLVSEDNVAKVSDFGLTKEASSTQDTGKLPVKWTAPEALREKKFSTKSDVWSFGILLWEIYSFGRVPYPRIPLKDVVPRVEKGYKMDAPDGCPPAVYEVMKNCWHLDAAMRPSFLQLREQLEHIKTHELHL
UniProt Q14012, sequence (whole entry, looked up): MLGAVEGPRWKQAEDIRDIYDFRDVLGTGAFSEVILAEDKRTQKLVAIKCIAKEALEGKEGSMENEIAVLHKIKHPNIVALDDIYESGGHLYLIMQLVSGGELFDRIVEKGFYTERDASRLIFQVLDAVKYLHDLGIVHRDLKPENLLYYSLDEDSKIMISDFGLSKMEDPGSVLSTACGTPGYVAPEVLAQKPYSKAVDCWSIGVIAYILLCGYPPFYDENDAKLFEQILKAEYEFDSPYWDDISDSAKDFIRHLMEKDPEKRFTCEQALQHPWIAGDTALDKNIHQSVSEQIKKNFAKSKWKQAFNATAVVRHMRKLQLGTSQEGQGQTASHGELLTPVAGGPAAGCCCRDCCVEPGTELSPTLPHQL

Study 1 — read-out: enzyme activity; action: inhibitor; concentration: 77 µM; baseline: untreated
Target: DNA polymerase theta, ATPase domain (POLQ, Homo sapiens, UniProt O75417)
UniProt O75417, sequence (whole entry, unmodified, looked up): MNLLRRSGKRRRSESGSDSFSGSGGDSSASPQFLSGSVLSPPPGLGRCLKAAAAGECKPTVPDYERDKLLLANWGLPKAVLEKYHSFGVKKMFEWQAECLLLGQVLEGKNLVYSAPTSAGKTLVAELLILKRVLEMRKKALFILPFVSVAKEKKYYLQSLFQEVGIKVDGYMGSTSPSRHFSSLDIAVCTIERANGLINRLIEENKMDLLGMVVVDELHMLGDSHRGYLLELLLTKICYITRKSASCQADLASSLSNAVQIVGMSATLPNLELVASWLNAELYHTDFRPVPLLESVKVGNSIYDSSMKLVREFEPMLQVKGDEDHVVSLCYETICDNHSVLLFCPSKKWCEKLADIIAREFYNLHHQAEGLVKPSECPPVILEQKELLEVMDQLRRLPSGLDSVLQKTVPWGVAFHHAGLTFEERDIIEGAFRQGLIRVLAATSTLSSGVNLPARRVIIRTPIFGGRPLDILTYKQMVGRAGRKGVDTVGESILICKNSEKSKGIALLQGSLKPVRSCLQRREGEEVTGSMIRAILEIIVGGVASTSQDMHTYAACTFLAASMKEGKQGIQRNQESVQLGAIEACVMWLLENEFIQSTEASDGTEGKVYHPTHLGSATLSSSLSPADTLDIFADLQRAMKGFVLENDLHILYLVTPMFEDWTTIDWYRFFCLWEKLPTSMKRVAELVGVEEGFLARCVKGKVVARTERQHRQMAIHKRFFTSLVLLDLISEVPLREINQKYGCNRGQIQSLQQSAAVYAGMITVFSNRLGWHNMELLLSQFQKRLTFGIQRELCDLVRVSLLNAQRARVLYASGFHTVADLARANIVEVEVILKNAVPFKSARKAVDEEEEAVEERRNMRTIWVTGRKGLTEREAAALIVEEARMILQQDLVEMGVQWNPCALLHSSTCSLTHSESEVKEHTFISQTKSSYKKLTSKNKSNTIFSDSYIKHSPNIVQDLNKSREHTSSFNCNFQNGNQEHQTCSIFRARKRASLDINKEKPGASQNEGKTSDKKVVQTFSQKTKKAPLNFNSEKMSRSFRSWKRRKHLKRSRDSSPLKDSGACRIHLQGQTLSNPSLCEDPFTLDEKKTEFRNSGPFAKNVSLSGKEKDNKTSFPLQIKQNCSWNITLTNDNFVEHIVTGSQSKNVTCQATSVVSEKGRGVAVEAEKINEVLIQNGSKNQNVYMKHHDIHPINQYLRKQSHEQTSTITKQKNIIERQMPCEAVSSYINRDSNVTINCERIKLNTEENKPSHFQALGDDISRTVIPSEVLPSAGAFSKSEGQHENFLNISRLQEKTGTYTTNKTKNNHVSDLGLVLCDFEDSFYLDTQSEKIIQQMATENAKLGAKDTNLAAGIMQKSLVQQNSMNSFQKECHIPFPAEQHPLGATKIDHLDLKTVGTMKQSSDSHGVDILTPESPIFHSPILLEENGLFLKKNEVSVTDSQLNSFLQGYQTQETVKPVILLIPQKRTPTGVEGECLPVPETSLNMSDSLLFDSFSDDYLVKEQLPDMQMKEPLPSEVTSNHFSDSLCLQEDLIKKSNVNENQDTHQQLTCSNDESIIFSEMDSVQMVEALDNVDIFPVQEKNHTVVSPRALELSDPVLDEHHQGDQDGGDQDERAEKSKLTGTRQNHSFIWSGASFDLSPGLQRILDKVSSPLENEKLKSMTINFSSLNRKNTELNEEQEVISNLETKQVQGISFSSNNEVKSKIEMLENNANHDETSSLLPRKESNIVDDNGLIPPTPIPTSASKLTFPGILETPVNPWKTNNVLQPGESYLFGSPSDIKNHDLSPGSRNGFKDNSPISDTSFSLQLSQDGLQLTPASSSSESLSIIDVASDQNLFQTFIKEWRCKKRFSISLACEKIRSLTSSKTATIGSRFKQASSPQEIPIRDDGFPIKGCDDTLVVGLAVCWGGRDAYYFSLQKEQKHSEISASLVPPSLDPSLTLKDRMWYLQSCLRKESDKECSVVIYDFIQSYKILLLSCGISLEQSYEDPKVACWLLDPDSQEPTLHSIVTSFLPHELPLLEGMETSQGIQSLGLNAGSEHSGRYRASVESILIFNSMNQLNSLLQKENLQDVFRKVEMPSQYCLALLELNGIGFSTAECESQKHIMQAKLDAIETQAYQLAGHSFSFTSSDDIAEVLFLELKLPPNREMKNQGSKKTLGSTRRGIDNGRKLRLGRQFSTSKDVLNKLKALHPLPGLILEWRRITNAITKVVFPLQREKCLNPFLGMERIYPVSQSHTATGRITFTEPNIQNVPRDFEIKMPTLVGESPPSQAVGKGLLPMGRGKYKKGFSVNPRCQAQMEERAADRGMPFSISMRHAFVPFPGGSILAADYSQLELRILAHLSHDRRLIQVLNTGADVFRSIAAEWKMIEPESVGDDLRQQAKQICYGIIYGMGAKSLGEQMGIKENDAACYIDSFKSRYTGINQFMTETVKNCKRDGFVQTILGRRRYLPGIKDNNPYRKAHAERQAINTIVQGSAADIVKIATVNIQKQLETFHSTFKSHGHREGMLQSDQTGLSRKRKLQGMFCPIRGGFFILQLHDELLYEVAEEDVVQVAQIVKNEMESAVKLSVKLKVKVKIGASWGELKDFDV
Structure (SMILES) | remaining activity
Cc1cc(C2CCCCC2)n(O)c(=O)c1 | 101% and 100%
CC(C)(O)CC[C@@H](O)[C@](C)(O)[C@H]1CC[C@@]2(O)C3=CC(=O)[C@@H]4C[C@@H](O)[C@@H](O)C[C@]4(C)[C@H]3CC[C@]12C | 103%
COc1cc(C(C)=O)ccc1O | 95.8%
CNc1nccc(-c2cccnc2Oc2cc(C(=O)Nc3cccc(C(F)(F)F)c3)ccc2C)n1 | 113% and 115% and 109%
C[C@H]1[C@@H](O)O[C@@H]2O[C@@]3(C)CC[C@H]4[C@H](C)CC[C@@H]1[C@@]24OO3 | 101%
Cc1ccnc(NS(=O)(=O)c2ccc(N)cc2)n1 | 97.3% and 102%
NC(N)=NCc1cccc(I)c1 | 95.3% and 102%
C=CCN1CCCC1CNC(=O)c1cc2nn[nH]c2cc1OC (stereo not drawn) | 96.5%
CC(C)C[C@H](NC(=O)[C@@H](NC(=O)c1cccc(-c2ccccc2)n1)[C@@H](C)O)B(O)O | 102%
CO/N=C(\C(=O)N[C@@H]1C(=O)N2C(C(=O)O)=C(COC(N)=O)CS[C@H]12)c1ccco1 | 98.1%
CN(C)CCOc1ccc(/C(=C(/CCCl)c2ccccc2)c2ccccc2)cc1 | 103%
C/C=C(/C(=C/C)c1ccc(O)cc1)c1ccc(O)cc1 | 95.9%
CCCCc1cc2ccccc2c(OCCN(C)C)n1 | 101%
CN(C)[C@@H](CCOc1cccc2ccccc12)c1ccccc1 | 104%

Study 2 — read-out: enzyme activity; action: inhibitor; concentration: 0.5 µM; baseline: control
Target: Serine/threonine-protein kinase TAO3 (TAOK3, Homo sapiens, UniProt Q9H2K8)
Residues (Q9H2K8 1-898): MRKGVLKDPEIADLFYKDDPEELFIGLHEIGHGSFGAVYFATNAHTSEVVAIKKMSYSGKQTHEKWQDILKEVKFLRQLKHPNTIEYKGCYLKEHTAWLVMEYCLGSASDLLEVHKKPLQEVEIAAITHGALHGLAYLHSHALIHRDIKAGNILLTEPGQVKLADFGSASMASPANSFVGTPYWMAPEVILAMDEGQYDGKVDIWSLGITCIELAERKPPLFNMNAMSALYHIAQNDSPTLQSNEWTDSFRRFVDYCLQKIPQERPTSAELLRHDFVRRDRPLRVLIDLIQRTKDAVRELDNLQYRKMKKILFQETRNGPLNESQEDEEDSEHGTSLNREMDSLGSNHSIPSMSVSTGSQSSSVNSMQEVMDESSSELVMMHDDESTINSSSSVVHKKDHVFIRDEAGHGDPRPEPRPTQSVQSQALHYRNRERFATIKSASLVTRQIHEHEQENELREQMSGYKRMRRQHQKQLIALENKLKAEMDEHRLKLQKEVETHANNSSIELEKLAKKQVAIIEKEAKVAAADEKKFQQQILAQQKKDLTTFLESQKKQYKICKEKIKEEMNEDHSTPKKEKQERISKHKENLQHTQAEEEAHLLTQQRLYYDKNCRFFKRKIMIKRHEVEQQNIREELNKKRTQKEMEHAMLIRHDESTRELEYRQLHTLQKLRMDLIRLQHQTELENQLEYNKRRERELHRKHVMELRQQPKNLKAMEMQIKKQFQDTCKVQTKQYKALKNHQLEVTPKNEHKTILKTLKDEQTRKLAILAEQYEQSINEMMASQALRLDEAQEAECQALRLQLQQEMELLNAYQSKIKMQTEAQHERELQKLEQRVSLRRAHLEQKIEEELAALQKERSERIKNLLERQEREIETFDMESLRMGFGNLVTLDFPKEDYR
Structure (SMILES) | remaining activity
CN(C)C[C@H]1CCn2c(c(C3=C(c4cn(C)c5ccccc45)C(=O)NC3=O)c3ccccc32)C1 | 96.4%
c1ccc(-c2cnc(Nc3ccc(OCCN4CCCC4)cc3)s2)cc1 | 87.4%
c1ccc(-c2[nH]ncc2-c2ccnc3ccccc23)nc1 | 92.8%
Nc1cccc(-c2cc3c(Oc4cccc(O)c4)ncnc3[nH]2)c1 | 93.5%
COc1cc2ncnc(Nc3cccc(Cl)c3)c2cc1OC | 90.4%
CCN(CC)C(=O)c1ccc(Nc2nc(OCC3CCCCC3)c3[nH]cnc3n2)cc1 | 74.2%
O=C1C(Cl)=C(N2C(=O)CCC2=O)C(=O)c2ccccc21 | 95.3%
CN([C@@H](Cc1ccc(OS(=O)(=O)c2cccc3cnccc23)cc1)C(=O)N1CCN(c2ccccc2)CC1)S(=O)(=O)c1cccc2cnccc12 | 89.9%
COc1cc2ncnc(Nc3ccc(O)c(Br)c3)c2cc1OC | 98.8%
O=c1cc(-c2cccc3c2Sc2ccccc2S3)oc(N2CCOCC2)c1 | 115%
Cc1cc2ncc(-c3ccccc3)nc2cc1C | 96.2%
Cc1cn(-c2cc(NC(=O)c3ccc(C)c(Nc4nccc(-c5cccnc5)n4)c3)cc(C(F)(F)F)c2)cn1 | 95.9%
C[C@@H]1CCN(C(=O)CC#N)C[C@@H]1N(C)c1ncnc2[nH]ccc12 | 94.9%
COc1cc2c(cc1OC)-c1[nH]nc(Nc3cccc(F)c3)c1C2 | 91.5%
O=C(Nc1cccc(Nc2nccc(Nc3cccc(C(F)(F)F)c3)n2)c1)C1CC1 | 110%
N#C/C(=C\c1ccc(O)c(O)c1)C(=O)NCc1ccccc1 | 103%
CCOc1nc(NC(=O)Cc2cc(OC)ccc2OC)cc(N)c1C#N | 88.6%
N#Cc1c(NC(=O)c2cccc3ccccc23)sc2c1CCCC2 | 90.2%
Ic1cccc(CSc2nnc(-c3ccncc3)o2)c1 | 103%
CCN(CC)CCNC(=O)c1c(C)[nH]c(/C=C2\C(=O)Nc3ccc(Cl)cc32)c1C | 45.5%
O=C1c2ccccc2-c2n[nH]c3cccc1c23 | 84.7%
Cc1nc2cc3nc(-c4cccs4)cnc3cc2n1C | 116%
O=C(NC(NC(=S)Nc1ccc(F)c([N+](=O)[O-])c1)C(Cl)(Cl)Cl)C(c1ccccc1)c1ccccc1 (stereo not drawn) | 121%
Cn1nc2c3c(cccc31)C(=O)c1ccccc1-2 | 87.6%

Study 3 — read-out: cell-free assay; technique: competition with immobilised ligand; concentration: 0.1 µM
Compound: CCOC(=O)c1cc2cc(-c3cc(C(=O)NCc4ccc(C(=O)O)cc4)nn3C)ccc2[nH]1
target | remaining binding [%]
PLK4 (Homo sapiens, UniProt O00444) | 82
PIK3CB (Homo sapiens, UniProt P42338) | 88
PDPK1 (Homo sapiens, UniProt O15530) | 92
Ribosomal protein S6 kinase alpha-1, C-terminal kinase domain (RPS6KA1, Homo sapiens, UniProt Q15418) | 84
CDK16 (Homo sapiens, UniProt Q00536) | 75
GRK4 (Homo sapiens, UniProt P32298) | 100
GSK3A (Homo sapiens, UniProt P49840) | 100
CSK (Homo sapiens, UniProt P41240) | 74
FGFR3 (Homo sapiens, UniProt P22607) | 97
MAST1 (Homo sapiens, UniProt Q9Y2H9) | 87
PIKFYVE (Homo sapiens, UniProt Q9Y2I7) | 100
RET (Homo sapiens, UniProt P07949, M918T) | 100
CAMK1 (Homo sapiens, UniProt Q14012) | 87
EGFR (Homo sapiens, UniProt P00533, A750P/del747-749) | 94
ULK3 (Homo sapiens, UniProt Q6PHR2) | 100
PRKD2 (Homo sapiens, UniProt Q9BZL6) | 100
Tyrosine-protein kinase ABL1, phosphorylated (ABL1, Homo sapiens, UniProt P00519) | 94
NEK9 (Homo sapiens, UniProt Q8TD19) | 98
Cyclin-dependent kinase 4, with cyclin D3 (CDK4, Homo sapiens, UniProt P11802) | 74
RIPK1 (Homo sapiens, UniProt Q13546) | 100
NEK6 (Homo sapiens, UniProt Q9HC98) | 95
TESK1 (Homo sapiens, UniProt Q15569) | 97
Tyrosine-protein kinase ABL1, phosphorylated (ABL1, Homo sapiens, UniProt P00519, Y253F) | 93
Tyrosine-protein kinase ABL1, non-phosphorylated (ABL1, Homo sapiens, UniProt P00519, Q252H) | 92
TBK1 (Homo sapiens, UniProt Q9UHD2) | 84

Study 4 — technique: phase 2a trial; host: idiopathic pulmonary fibrosis patients
SMILES: CC(C)n1cnc(-c2ccc(F)cc2)c1-c1ncc(C(=O)Nc2ccc(N3CCN(C)CC3)cc2)[nH]1
item | dose | notes | adverse event incidence [%]
allergic conjunctivitis | 30 mg once daily | grade 4 | 0
arthritis | 60 mg once daily | grade 2 | 0
carotid intima-media thickening | dose not given | grade 5, all arms pooled | 0
weight decreased | 60 mg once daily | grade 5 | 0
chronic gastritis | 30 mg once daily | grade 1 | 0
immunoglobulins increased | dose not given | grade 5, all arms pooled | 0
general and administration site disorders | 60 mg once daily | grade 5 | 0
synovitis | 30 mg once daily | grade 5 | 0
weight decreased | 60 mg once daily | grade 2 | 0
hepatic enzyme abnormal | 30 mg once daily | grade 1 | 0
gingivitis | 60 mg once daily | grade 3 | 0
weight decreased | dose not given | grade 3, all arms pooled | 0

Excerpt of the above (study 3):
target | remaining binding [%]
PLK4 (Homo sapiens, UniProt O00444) | 82
NEK9 (Homo sapiens, UniProt Q8TD19) | 98
Tyrosine-protein kinase ABL1, non-phosphorylated (ABL1, Homo sapiens, UniProt P00519, Q252H) | 92
CSK (Homo sapiens, UniProt P41240) | 74
EGFR (Homo sapiens, UniProt P00533, A750P/del747-749) | 94
PIKFYVE (Homo sapiens, UniProt Q9Y2I7) | 100
RET (Homo sapiens, UniProt P07949, M918T) | 100
Tyrosine-protein kinase ABL1, phosphorylated (ABL1, Homo sapiens, UniProt P00519) | 94
